Experimental data of several laboratories.
A part holds a random share of what one study measured. Several values in a cell are separate wells, animals, samples, runs or records.
Chain of UniProt Q13163 (whole entry, looked up): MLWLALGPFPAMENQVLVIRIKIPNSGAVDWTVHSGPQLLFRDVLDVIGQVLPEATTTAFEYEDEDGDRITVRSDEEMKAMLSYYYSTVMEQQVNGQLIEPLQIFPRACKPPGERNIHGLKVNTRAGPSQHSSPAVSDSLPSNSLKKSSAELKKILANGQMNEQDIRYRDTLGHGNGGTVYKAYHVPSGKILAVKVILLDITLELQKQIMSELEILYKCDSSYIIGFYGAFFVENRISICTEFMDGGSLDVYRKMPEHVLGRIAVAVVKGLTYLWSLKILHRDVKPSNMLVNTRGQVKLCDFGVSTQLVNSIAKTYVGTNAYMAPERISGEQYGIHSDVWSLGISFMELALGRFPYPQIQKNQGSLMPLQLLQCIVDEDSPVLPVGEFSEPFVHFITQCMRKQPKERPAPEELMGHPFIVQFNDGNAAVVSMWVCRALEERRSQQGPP
Chain of UniProt P04629 (whole entry, looked up): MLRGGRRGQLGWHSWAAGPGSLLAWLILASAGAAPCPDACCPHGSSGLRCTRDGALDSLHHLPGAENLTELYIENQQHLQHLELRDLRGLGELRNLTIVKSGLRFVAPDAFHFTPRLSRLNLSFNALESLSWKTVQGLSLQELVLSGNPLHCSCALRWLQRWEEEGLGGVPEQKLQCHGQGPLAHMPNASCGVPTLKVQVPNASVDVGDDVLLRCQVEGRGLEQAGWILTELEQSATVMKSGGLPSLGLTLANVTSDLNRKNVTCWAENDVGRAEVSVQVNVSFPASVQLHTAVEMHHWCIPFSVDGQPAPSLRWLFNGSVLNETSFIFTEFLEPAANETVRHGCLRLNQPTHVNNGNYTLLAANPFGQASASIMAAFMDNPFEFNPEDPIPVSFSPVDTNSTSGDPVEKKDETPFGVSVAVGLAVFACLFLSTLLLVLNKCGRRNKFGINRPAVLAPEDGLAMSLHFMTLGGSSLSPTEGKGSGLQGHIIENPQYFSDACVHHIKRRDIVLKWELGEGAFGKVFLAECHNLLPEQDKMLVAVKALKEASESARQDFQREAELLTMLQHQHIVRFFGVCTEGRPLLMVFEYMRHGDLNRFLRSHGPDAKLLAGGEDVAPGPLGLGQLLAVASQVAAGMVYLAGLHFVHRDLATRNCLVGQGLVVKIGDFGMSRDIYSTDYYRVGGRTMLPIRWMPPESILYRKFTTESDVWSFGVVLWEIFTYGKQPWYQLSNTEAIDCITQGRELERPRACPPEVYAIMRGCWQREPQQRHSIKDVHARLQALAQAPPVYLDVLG
Chain of UniProt P07949 (whole entry, unmodified, looked up): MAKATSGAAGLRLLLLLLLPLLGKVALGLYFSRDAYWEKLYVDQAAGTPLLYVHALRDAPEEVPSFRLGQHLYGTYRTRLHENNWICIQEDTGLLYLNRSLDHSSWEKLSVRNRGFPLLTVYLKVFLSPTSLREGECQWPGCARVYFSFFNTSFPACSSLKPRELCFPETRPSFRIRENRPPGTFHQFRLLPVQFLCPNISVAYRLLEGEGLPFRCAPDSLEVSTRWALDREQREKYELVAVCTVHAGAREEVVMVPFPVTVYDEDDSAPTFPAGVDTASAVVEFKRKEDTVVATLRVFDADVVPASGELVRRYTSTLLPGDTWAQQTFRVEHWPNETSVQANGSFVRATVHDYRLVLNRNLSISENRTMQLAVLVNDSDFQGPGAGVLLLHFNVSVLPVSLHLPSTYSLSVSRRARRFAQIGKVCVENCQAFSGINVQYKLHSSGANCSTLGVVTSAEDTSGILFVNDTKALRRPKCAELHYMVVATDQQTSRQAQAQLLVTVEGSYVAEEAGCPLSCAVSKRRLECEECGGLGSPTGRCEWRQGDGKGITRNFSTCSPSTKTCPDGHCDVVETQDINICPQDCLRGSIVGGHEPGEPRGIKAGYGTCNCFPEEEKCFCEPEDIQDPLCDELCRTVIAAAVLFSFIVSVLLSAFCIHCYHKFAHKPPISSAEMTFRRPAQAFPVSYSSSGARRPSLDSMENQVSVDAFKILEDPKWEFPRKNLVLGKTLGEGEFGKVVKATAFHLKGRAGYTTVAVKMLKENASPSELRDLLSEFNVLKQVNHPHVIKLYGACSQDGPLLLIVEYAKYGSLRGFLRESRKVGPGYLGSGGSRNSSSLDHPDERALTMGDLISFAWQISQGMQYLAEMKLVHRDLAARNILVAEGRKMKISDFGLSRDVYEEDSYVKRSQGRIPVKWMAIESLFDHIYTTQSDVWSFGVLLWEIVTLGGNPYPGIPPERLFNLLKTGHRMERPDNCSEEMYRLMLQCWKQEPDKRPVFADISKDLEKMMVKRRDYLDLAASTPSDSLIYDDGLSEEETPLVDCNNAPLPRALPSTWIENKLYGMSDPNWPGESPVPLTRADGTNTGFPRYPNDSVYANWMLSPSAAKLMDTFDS
Chain of UniProt Q00536 (whole entry, looked up): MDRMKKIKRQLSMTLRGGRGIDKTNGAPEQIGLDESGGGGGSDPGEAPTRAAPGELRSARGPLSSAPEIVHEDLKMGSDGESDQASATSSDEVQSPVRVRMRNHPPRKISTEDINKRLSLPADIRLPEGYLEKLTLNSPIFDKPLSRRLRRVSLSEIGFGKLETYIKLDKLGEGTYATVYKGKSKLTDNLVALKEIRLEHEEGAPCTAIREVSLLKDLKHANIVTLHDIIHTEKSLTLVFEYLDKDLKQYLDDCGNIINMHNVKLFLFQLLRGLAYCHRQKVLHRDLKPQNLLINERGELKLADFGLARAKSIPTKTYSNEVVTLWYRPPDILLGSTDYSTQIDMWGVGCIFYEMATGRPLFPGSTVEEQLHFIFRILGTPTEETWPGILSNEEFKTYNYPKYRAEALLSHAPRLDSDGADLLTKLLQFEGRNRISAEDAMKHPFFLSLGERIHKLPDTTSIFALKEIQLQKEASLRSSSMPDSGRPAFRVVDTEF
Chain of UniProt P30530 (whole entry, looked up): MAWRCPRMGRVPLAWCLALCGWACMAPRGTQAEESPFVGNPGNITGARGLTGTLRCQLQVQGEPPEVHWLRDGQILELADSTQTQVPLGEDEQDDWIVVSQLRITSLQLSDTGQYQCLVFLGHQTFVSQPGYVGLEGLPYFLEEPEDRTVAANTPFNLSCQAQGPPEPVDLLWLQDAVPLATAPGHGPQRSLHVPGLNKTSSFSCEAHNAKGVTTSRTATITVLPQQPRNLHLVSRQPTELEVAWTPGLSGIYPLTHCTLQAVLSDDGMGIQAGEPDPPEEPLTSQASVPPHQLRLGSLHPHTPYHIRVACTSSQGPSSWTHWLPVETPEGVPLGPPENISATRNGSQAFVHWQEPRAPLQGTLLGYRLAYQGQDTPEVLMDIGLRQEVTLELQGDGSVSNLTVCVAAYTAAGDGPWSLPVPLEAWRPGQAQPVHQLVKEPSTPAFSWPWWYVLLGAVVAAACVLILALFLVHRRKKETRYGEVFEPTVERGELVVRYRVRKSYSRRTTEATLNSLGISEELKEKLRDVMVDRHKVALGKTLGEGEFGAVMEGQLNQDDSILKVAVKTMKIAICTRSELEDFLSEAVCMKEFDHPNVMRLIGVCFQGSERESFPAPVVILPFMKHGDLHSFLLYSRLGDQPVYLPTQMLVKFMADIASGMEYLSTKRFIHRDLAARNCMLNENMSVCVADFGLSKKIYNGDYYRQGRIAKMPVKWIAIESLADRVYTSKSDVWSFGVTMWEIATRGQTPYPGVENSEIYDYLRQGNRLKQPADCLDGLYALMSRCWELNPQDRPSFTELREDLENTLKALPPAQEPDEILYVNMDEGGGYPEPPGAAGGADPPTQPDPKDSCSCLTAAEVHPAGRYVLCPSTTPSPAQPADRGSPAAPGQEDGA
Chain of UniProt Q16816 (whole entry, looked up): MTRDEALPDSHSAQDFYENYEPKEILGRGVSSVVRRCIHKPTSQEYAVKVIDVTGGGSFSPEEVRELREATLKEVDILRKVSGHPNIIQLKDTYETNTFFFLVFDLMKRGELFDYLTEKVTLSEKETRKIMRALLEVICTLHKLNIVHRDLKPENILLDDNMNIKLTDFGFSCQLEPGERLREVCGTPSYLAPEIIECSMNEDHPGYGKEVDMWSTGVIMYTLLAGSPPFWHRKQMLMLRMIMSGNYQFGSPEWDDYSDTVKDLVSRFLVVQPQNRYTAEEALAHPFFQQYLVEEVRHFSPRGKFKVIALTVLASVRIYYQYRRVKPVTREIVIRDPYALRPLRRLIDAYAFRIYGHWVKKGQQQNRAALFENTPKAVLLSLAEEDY

Sample 1
Target: Serine/threonine-protein kinase SIK2 (SIK2, Homo sapiens, UniProt Q9H0K1)
Chain of UniProt Q9H0K1 (whole entry, looked up): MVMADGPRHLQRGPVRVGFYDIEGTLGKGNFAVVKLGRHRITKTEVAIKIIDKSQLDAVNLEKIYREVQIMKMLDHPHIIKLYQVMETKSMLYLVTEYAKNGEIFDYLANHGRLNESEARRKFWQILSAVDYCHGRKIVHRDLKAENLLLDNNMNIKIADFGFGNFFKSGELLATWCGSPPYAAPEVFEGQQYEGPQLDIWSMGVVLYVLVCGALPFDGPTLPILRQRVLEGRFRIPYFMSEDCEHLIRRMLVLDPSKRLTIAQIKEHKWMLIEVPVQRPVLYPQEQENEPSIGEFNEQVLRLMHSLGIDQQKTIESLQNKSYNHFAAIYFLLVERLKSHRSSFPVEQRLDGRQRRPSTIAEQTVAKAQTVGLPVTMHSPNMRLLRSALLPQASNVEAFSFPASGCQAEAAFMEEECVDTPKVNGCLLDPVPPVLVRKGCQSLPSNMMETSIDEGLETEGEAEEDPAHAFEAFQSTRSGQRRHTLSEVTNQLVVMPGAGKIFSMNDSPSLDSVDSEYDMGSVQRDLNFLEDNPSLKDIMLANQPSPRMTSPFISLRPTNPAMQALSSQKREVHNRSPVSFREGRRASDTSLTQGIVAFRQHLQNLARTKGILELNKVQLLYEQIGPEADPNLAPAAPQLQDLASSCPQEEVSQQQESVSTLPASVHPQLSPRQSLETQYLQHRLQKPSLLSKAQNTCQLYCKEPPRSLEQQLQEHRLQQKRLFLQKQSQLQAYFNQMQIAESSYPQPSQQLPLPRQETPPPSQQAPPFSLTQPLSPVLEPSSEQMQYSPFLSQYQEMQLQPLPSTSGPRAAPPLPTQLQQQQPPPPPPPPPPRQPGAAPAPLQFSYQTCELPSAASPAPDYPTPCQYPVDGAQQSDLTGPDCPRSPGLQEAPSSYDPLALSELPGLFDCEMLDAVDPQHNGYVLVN
Effect on: enzyme activity
Mode: inhibitor
Concentration: 0.5 µM
Reference: control
N#Cc1c(NC(=O)c2cccc3ccccc23)sc2c1CCCC2 gave a remaining activity of 101%.
N#C/C(=C\c1ccc(O)c(O)c1)C(=O)NCc1ccccc1 has a remaining activity of 99.7%.
COc1cc2ncnc(Nc3ccc(O)c(Br)c3)c2cc1OC gave a remaining activity of 92.2%.
O=C(NC(NC(=S)Nc1ccc(F)c([N+](=O)[O-])c1)C(Cl)(Cl)Cl)C(c1ccccc1)c1ccccc1 (stereo not shown) has a remaining activity of 112%.
The remaining activity of O=C1c2ccccc2-c2n[nH]c3cccc1c23 is reported as 83.1%.
For C[C@@H]1CCN(C(=O)CC#N)C[C@@H]1N(C)c1ncnc2[nH]ccc12, the remaining activity was 89.2%.
The remaining activity of COc1cc2ncnc(Nc3cccc(Cl)c3)c2cc1OC is reported as 98.7%.
Cn1nc2c3c(cccc31)C(=O)c1ccccc1-2 gave a remaining activity of 100%.
c1ccc(-c2cnc(Nc3ccc(OCCN4CCCC4)cc3)s2)cc1 has a remaining activity of 45.6%.
For Ic1cccc(CSc2nnc(-c3ccncc3)o2)c1, the remaining activity was 100%.

Sample 2
Structure (SMILES): O=C1CCc2cc(Nc3cc(OC4CCOCC4)c([N+](=O)[O-])cc3Cl)ccc2N1
Effect on: cell-free assay
Technique: competition with immobilised ligand
Concentration: 1 µM
For Receptor tyrosine-protein kinase erbB-2 (ERBB2, Homo sapiens, UniProt P04626): remaining binding read 100%.
The remaining binding was 90% (Mitogen-activated protein kinase kinase kinase 9 (MAP3K9, Homo sapiens, UniProt P80192)).
It gave 96% for remaining binding (Tyrosine-protein kinase receptor UFO (AXL, Homo sapiens, UniProt P30530)).
Cyclin-dependent kinase 16 (CDK16, Homo sapiens, UniProt Q00536) — remaining binding: 88%.
Atypical kinase COQ8B, mitochondrial (COQ8B, Homo sapiens, UniProt Q96D53) — remaining binding: 100%.
The remaining binding was 100% (Peripheral plasma membrane protein CASK (CASK, Homo sapiens, UniProt O14936)).
Tyrosine-protein kinase ABL1, non-phosphorylated (ABL1, Homo sapiens, UniProt P00519, Q252H) — remaining binding: 79%.
For Proto-oncogene tyrosine-protein kinase receptor Ret (RET, Homo sapiens, UniProt P07949, V804L): remaining binding read 91%.
It gave 100% for remaining binding (Serine/threonine-protein kinase WNK2 (WNK2, Homo sapiens, UniProt Q9Y3S1)).
Serine/threonine-protein kinase Nek9 (NEK9, Homo sapiens, UniProt Q8TD19) — remaining binding: 80%.
Cyclin-dependent kinase 4, with cyclin D1 (CDK4, Homo sapiens, UniProt P11802) — remaining binding: 78%.
It gave 94% for remaining binding (High affinity nerve growth factor receptor (NTRK1, Homo sapiens, UniProt P04629)).
The remaining binding was 87% (Serine/threonine-protein kinase 26 (STK26, Homo sapiens, UniProt Q9P289)).
The remaining binding was 100% (Dual specificity mitogen-activated protein kinase kinase 5 (MAP2K5, Homo sapiens, UniProt Q13163)).
The remaining binding was 100% (Phosphorylase b kinase gamma catalytic chain, skeletal muscle/heart isoform (PHKG1, Homo sapiens, UniProt Q16816)).

Sample 3
Structure (SMILES): C[C@@H]1CN(c2ccc(-c3cc(C(=O)NCCOCCOCCOCCOCCOCCOCCOCCOCCOCCNC(=O)/C=C/c4[nH]cc(C(=O)N[C@@H](CC(N)=O)c5ccc(F)c(Cl)c5)c4-c4ccc(Cl)cc4F)ccc3F)cc2NC(=O)c2c[nH]c(=O)cc2C(F)(F)F)C[C@H](C)N1C
Technique: ATPlite
It gave 84.8% and 56% and 76.5% for viability (MV4-11; 0.01 µM, 5 days; reference: DMSO).
MV4-11; 4.64 µM, 5 days; reference: DMSO — viability: 5.69% and 9.65% and 4.43%.
The viability was 12.1% (MV4-11; 1 µM, 5 days; reference: DMSO).
The viability was “no effect” (MV4-11 expressing HiBiT-WDR5; 2 nM to 10 µM, 24 h).
MV4-11; 0.0215 µM, 5 days; reference: DMSO — viability: 54.8% and 71.6% and 42.7%.

Other studies, line by line
O=C1CCC(N2Cc3cc(C4CCN(Cc5ccccc5)CC4)ccc3C2=O)C(=O)N1 (stereo not shown) gave an oral bioavailability of 64.4% and 69.9% (male ICR mice, plasma; oral, 3.0 mg/kg).
